Measured values pooled from the literature.
“And” joins repeats or separate records; there may be more than shown. ± marks the error that the study gave.
UniProt P51575, sequence (whole entry, unmodified, looked up): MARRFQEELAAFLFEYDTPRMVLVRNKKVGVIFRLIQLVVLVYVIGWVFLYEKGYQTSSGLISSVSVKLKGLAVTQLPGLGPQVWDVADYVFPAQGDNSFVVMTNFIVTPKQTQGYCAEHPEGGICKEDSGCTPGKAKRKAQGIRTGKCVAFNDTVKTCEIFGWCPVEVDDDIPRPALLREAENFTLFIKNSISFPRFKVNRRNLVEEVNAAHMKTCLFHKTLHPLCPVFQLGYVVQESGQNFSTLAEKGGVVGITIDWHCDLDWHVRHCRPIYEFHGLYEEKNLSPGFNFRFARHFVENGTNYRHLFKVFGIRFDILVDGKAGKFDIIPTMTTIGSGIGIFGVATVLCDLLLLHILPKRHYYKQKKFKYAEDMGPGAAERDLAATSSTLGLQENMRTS

With O=c1oc2c(O)c(O)cc3c(=O)oc4c(O)c(O)cc1c4c23 the MRT was 4.87 ± 0.48 h (rat, plasma; oral, 1000 mg/kg extract, possible metabolite or extract component).
CCc1ccc(-c2ccc(-c3cc(F)c(F)c(F)c3)c(F)c2)cc1: “median placental accumulation” 229 ng/g (rat, placenta; 5000 ng/mL in perfusate, high dose, mixture of 21 LCMs).
The nausea incidence of Cn1cc(Nc2nc(N)nc(-c3cccc(-n4ccc5cc(C6CC6)cc(F)c5c4=O)c3CO)n2)cn1 is reported as 1% (healthy humans, fed; oral tablet, 300 mg twice daily (multiple dose), 14 (unit not given); reference: subjects).
For C[C@@H](Nc1cc(F)cc(F)c1)c1cc(C(=O)N(C)C)cc2c(=O)cc(N3CCOCC3)oc12, “related serious adverse events” read 1.6% (refers to: Anemia; advanced solid tumour patients; oral, dose not given, dose finding).
O=C(OC(C(F)(F)F)C(F)(F)F)N1CCN(Cc2cccc(Oc3ccccc3)c2)CC1 gave a k2 of 0.044 min⁻¹ (PET blocking study; rhesus monkey, brain FCX; 0.01 mg/kg, compound pretreatment, together with: [18F]T-401 tracer).
NS(=O)(=O)c1cc(C(=O)O)c(NCc2ccco2)cc1Cl — result for “subjects with adverse event”: 0% (refers to: dizziness; healthy men; oral, 8 days, treatment-emergent, crossover trial).
With COc1ccccc1NC(=O)CSc1nnc(-c2ccccc2Cl)n1-c1ccccc1 the thermodynamic solubility was under 7.14 µM (aqueous buffer; pH 7.4).
With CCn1cc(-c2cc(Cn3ccoc3=N)cc3c2CCN([C@@H](C)c2cc(OC)ccn2)C3=O)c(C(F)(F)F)n1 the EC50 was 0.0383 µM (Hs 294T; cell growth, inhibitor; 120 h).
For O=C(O)CC[C@H](NC(=O)N[C@@H](CCCCNC(=O)[C@H](Cc1ccc2ccccc2c1)NC(=O)CCCCCNC(=O)CN1CCN(CC(=O)O)CCN(CC(=O)O)CCN(CC(=O)O)CC1)C(=O)O)C(=O)O [gallium-68 labelled], the SUVmean was 0.05 ± 0.004 SUV (PET/CT; mouse, 22Rv1 xenograft, muscle; intravenous, 3.7 MBq, 8 h).
O=C(Nc1nc2cccc(-c3ccc(CN4CCS(=O)(=O)CC4)cc3)n2n1)C1CC1 — result for “treatment-emergent adverse events”: 6.7% (refers to: general and administration-site disorders; rheumatoid arthritis patients; oral, 150 mg once daily, 4 weeks, any relatedness).
For CNCc1ccc(-c2[nH]c3cc(F)cc4c3c2CCNC4=O)cc1, “incidence of anaemia (haemoglobin decreased)” read 7.7% (human patients; oral, 600 mg twice daily, grade 3).
For CC(C)(C(=O)N1CCOc2c(C#N)cncc2C1)C(F)F, “subjects with adverse event” read 12.5% (refers to: Presyncope; human; oral, 20 mg once daily, 14 days, multiple ascending dose).
Under “patients with sinus bradycardia”, Cc1cc(Nc2ccc(S(F)(F)(F)(F)F)cc2)n2nc(C(C)(F)F)nc2n1 is recorded as 0% (Plasmodium falciparum; P. falciparum malaria patients; oral, 250 mg).
For CNCCOC12CC3(C)CC(C)(CC(Cn4ncc(-c5ccc(N6CCc7cccc(C(=O)Nc8nc9ccccc9s8)c7C6)nc5C(=O)O)c4C)(C3)C1)C2, “dP/dt at 50 change” read -24% (beagle dog, male, anaesthetised; intravenous bolus, 0.03 mg/kg, 180 min; reference: baseline).
With Nc1ncnc2c1ncn2[C@@H]1O[C@H](COP(=O)(O)CP(=O)(O)OP(=O)(O)O)[C@@H](O)[C@H]1O the specific binding was 560 CCPM and 820 CCPM and 580 CCPM (P2X purinoceptor 1 (P2RX1, Homo sapiens, UniProt P51575, E122A); saturation binding; HEK293; 79 nM).
Cc1cc(C(=O)NC(C)(C)COc2cccc3c2C(N)=NS(=O)(=O)N3)cc(C)n1 gave a cytotoxicity of 2% (human peripheral blood lymphocytes; CBPI, concurrent micronucleus test; 100 µg/mL, 4 h; reference: vehicle control).
Under “patients with TEAE”, Cc1cc(C)c(CNC(=O)c2cc(Cl)c3c(c2C)O[C@@](C)([C@H]2CC[C@H](N(C)C)CC2)O3)c(=O)[nH]1 is recorded as 8.3% (refers to: Fatigue; human patients; oral, 200 mg once daily, 1 day onset day 14).
COc1ccc2c(c1)CN(C(=O)CCN1CCC(Cc3ccccc3)CC1)CC[S@@+]2[O-] has a QTc interval of 250 ± 14 ms (telemetry; conscious male beagle dogs; intravenous, 4 mg/kg, 2 h).
COc1cnc2cccc(N3CCc4c(cc(Cn5ccnc5C)cc4-c4cn(C)nc4C(F)(F)F)C3=O)c2c1 has an EC50 of 0.352 µM (SW 1116; cell growth, inhibitor; 120 h).
Cn1cc(Nc2nccc(-c3ccc4c(c3)CN(C3COC3)CC[C@H]4NC(=O)c3cn(C(C)(C)C)nn3)n2)cn1: “B cell count change” 42.9% (human, whole blood; 300 mg twice daily, day 14; reference: pre-dose baseline).
The body weight of O=C(/C=C/CCc1ccc(O)cc1)/C=C/c1ccc(O)cc1 is reported as 20 ± 1.12 g (nude mouse MCF7 xenograft; 40 mg/kg, day 2).
CCOc1c([C@H](C)n2nc(C)c3c(N)ncnc32)cc(Cl)c(F)c1[C@@H]1CNC(=O)C1 has a Tmax median of 0.5 h (patients, monotherapy; oral, 5 mg once daily, cycle 1 day 15).
The tissue uptake of CC(C)C[C@H](NC(=O)C[C@H](O)[C@H](CC(C)C)NC(=O)[C@H](Cc1c[nH]cn1)NC(=O)CNC(=O)[C@@H](NC(=O)[C@H](C)NC(=O)[C@H](Cc1c[nH]c2ccccc12)NC(=O)[C@H](CCC(N)=O)NC(=O)[C@@H](Cc1ccccc1)NC(=O)COCCOCCNC(=O)CCC(C(=O)O)N1CCN(CC(=O)O)CCN(CC(=O)O)CCN(CC(=O)O)CC1)C(C)C)C(N)=O (some centres unmarked) [lutetium-177 labelled] is reported as 0.5 ± 0.2 %ID/g (BALB/c nu/nu mice, small intestine; 750 pmol, 1 h, together with: PA 300 µg).
Cn1cc(-c2ccc(-c3cncc(Cl)c3N3CCC4(CCNC4=O)CC3)cc2)cn1 — result for “log2 fold change”: 3.47 (COLO 205; gene expression, microarray, refers to: SLC2A1 (GLUT1) mRNA; concentration not given, 2 h; reference: untreated cells).
CC(C)C(=O)C(=O)[O-].[Na+]: “host cell number” 0.965 ± 0.08 (HCT-8; Hoechst nuclei count; 1 mM, 24 h; reference: PBS).
C1=C/COCc2cc(ccc2OCCN2CCCC2)Nc2nccc(n2)-c2cccc(c2)COC/1: “stability relative error” -2.26% (rat plasma; 2 ng/mL, 24 h, 4 °C; reference: nominal concentration).
Nc1ccc(C=Cc2ccc([125I])cc2)cc1: storage stability “stable” (HPLC; up to 2 months, refrigerated).
With Nc1ncnc2c1ncn2[C@H]1C[C@@H]2OP(=O)(O)OC[C@H]3O[C@@H](n4cnc5c(N)ncnc54)C[C@@H]3OP(=O)(O)OC[C@H]2O1 the glucose was 9.55 ± 2.68 mmol/L (non-tumor-bearing mice, serum; intravenous, 1 mg/kg, toxicity study).
COc1cc([C@@H]2Oc3cc([C@H]4Oc5cc(O)cc(O)c5C(=O)[C@@H]4O)ccc3O[C@H]2CO)ccc1O has an AUC(0-4h) of 450 nM·h (FVB wild-type mice, plasma; oral gavage, 500 mg/kg silymarin, geometric mean).
